{"data": "Measurements pooled from the literature", "organism": "Acinetobacter baumannii", "note": "Lines come from different studies, so protocols differ. Several values in a cell are separate wells, animals, samples, runs or records. Numbers after ± are the reported error."}
{"Compound": "CCN1CCC(CCNCc2cc3cc(-c4ccccc4)ccc3nc2SCc2ccccc2)CC1", "test": "NADH-driven proton pumping, ACMA quenching", "test system": "inverted membrane vesicles", "setting": "32 µg/mL", "measurement": "inhibition", "value": "25%"}
{"Compound": "C[C@@H](O)[C@H]1C(=O)N2C(C(=O)O)=C(SCCN=CN)C[C@H]12", "test system": "0403, female ICR mice, peritonitis, liver", "setting": "dose not given", "measurement": "bacterial load", "value": "3.95 log CFU and 2.22 log CFU and 2.82 log CFU and 3.22 log CFU and 2.52 log CFU"}
{"Compound": "CCN1CCC(CCNCc2cc3cc(OC)c(OC)c(OC)c3nc2SCc2ccccc2)CC1", "test": "NADH-driven proton pumping, ACMA quenching", "test system": "inverted membrane vesicles", "setting": "2 µg/mL", "measurement": "inhibition", "value": "0%"}
{"Compound": "N=C(N)c1ccc(OCc2cccc(COc3ccc(C(=N)N)cc3)c2)cc1", "test system": "ATCC 17978", "setting": "concentration not given, with: rifampicin", "measurement": "MIC in combination", "value": "25 µg/mL"}
{"Compound": "CCN1CCC(CCNCc2cc3cc(Br)ccc3nc2SCc2ccccc2)CC1", "test": "NADH-driven proton pumping, ACMA quenching", "test system": "inverted membrane vesicles", "setting": "32 µg/mL", "measurement": "inhibition", "value": "85%"}
{"Compound": "N=C(N)c1ccc(OCc2ccc(-c3ccccc3)cc2COc2ccc(C(=N)N)cc2)cc1", "test system": "ATCC 17978", "setting": "concentration not given, with: rifampicin", "measurement": "MIC in combination", "value": "3.13 µg/mL"}
{"Compound": "c1ccc(CSc2nc3ccccc3cc2CNCc2ccc(N3CCCCC3)cc2)cc1", "test": "NADH-driven proton pumping, ACMA quenching", "test system": "inverted membrane vesicles", "setting": "2 µg/mL", "measurement": "inhibition", "value": "10%"}
{"Compound": "CN[C@@H]1[C@@H](O[C@H]2O[C@H](CO)[C@@H](N)[C@H](O)[C@H]2O)OC2C[C@@H](N)[C@@H](O[C@H]3[C@H](O)[C@@H](O)[C@H](N)C[C@@H]3N)OC2[C@@H]1O (stereo partly shown)", "test": "broth microdilution", "test system": "NCTC 13424", "scale": "baseline: 5% CO2 over ambient air", "measurement": "MIC fold shift", "value": 1}
{"Compound": "Cc1c(CN(C)C(=O)/C=C/c2cnc3c(c2)CC(NC(=O)OC(C)(C)C)C(=O)N3)oc2ccccc12 (stereo not shown)", "test": "broth microdilution", "test system": "AR-0278", "measurement": "MIC", "value": "> 32 µg/mL"}
{"Compound": "N=C(N)c1ccc(OCc2ccccc2COc2ccc(C(=N)N)cc2)cc1", "test system": "ATCC 17978", "setting": "concentration not given, with: rifampicin", "measurement": "MIC in combination", "value": "25 µg/mL"}
{"Compound": "CCCCCCCCCC(=O)N[C@@H](Cc1c[nH]c2ccccc12)C(=O)N[C@H](CC(N)=O)C(=O)N[C@@H](CC(=O)O)C(=O)N[C@@H]1C(=O)NCC(=O)N[C@@H](CCCN)C(=O)N[C@@H](CC(=O)O)C(=O)N[C@H](C)C(=O)N[C@@H](CC(=O)O)C(=O)NCC(=O)N[C@H](CO)C(=O)N[C@@H]([C@H](C)CC(=O)O)C(=O)N[C@@H](CC(=O)c2ccccc2N)C(=O)O[C@@H]1C", "test system": "DSM 30007, iron-rich Mueller-Hinton broth", "setting": "concentration not given, 18 h, with: CaCl2 110 µg/mL", "measurement": "antimicrobial activity", "value": "inactive"}
{"Compound": "N=C(N)c1ccc(OCCC(CCOc2ccc(C(=N)N)cc2)c2ccccc2)cc1 (stereo not shown)", "test system": "ATCC 17978", "setting": "concentration not given, with: rifampicin", "measurement": "MIC in combination", "value": "12.5 µg/mL"}
{"Compound": "CC(C)C[C@H](NC(=O)[C@H](Cc1ccc(O)cc1)NC(=O)[C@@H]1CCCN1C(=O)[C@H](CCCNC(=N)N)NC(=O)[C@@H]1CCCN1C(=O)[C@H](CCCCN)NC(=O)[C@H](CC(=O)O)NC(=O)[C@@H]1CCCN1C(=O)[C@H](CCCNC(=N)N)NC(=O)C1(N)CCCCC1)C(=O)N1CCC[C@H]1C(=O)N[C@@H](CCCNC(=N)N)C(=O)N1CCC[C@H]1C(=O)N[C@@H](CCCNC(=N)N)C(=O)N1CCC[C@H]1C(=O)N1CCC[C@H]1C(=O)N[C@@H](CCCNC(=N)N)C(=O)N1CCC[C@H]1C(=O)N[C@H](C(=O)N[C@@H](CCCNC(=N)N)C(=O)N[C@@H](CSSC[C@H](NC(=O)[C@H](CCCNC(=N)N)NC(=O)[C@@H](NC(=O)[C@@H]1CCCN1C(=O)[C@H](CCCNC(=N)N)NC(=O)[C@@H]1CCCN1C(=O)[C@@H]1CCCN1C(=O)[C@H](CCCNC(=N)N)NC(=O)[C@@H]1CCCN1C(=O)[C@H](CCCNC(=N)N)NC(=O)[C@@H]1CCCN1C(=O)[C@H](CC(C)C)NC(=O)[C@H](Cc1ccc(O)cc1)NC(=O)[C@@H]1CCCN1C(=O)[C@H](CCCNC(=N)N)NC(=O)[C@@H]1CCCN1C(=O)[C@H](CCCCN)NC(=O)[C@H](CC(=O)O)NC(=O)[C@@H]1CCCN1C(=O)[C@H](CCCNC(=N)N)NC(=O)C1(N)CCCCC1)C(C)C)C(=O)NN)C(=O)NN)C(C)C", "test": "membrane disruption, propidium iodide uptake", "test system": "19606", "setting": "90 min, 37 °C", "measurement": "MDC", "value": "43.9 ± 1 µg/mL"}
{"note": "Repeated from above:"}
{"Compound": "c1ccc(CSc2nc3ccccc3cc2CNCc2ccc(N3CCCCC3)cc2)cc1", "test": "NADH-driven proton pumping, ACMA quenching", "test system": "inverted membrane vesicles", "setting": "2 µg/mL", "measurement": "inhibition", "value": "10%"}
